Results collected from several papers.
Parts stem from different laboratories: compare values within a part only. Changes are numbered by the printed parent chain.

Study 1 — technique: protein binding microarray; molecule type: double-stranded DNA, one strand shown; sample: in vitro; tested at: not given; baseline: not given; direction: higher = stronger binding
Target: Histone acetyltransferase KAT6A, both winged helices, GST fusion (KAT6A, Homo sapiens, UniProt Q92794, residues 1-181)
Setting: 8-mer, flanks averaged, mean of 2 arrays, mostly near background
Residues (chain): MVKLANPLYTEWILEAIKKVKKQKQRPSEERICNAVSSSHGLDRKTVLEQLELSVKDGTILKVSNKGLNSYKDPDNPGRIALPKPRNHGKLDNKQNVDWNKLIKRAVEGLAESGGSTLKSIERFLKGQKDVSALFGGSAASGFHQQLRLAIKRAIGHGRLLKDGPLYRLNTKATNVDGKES
Sequence	E-score
CACATGGC	0.019
CCAAAACC	-0.0261
CGAACTCA	-0.0791
CAATAAAG	-0.042
ACCTTTTC	-0.195
ATTTACAG	-0.113
ATGCGCAT	0.315
AAGAGTGG	-0.0602
CTTCTACC	-0.0916
TCGAGAAA	-0.0793
ACCGCCTC	0.185
ATTCCATG	-0.0427
GGCATTAA	-0.05
ATACCTCA	-0.267
GAGACACA	-0.18
GGAGTCCA	-0.00651
CACAACGA	0.0923
ACATCTAA	-0.155
CTGGTTCC	0.0126

Study 2 — technique: RNA Bind-n-Seq; molecule type: RNA; sample: in vitro; tested at: 1 µM; setting: whole 134-nt RNA, ends assumed; added: 150 mM KCl; baseline: input library; direction: higher = stronger binding
Target: Ras GTPase-activating protein-binding protein 1, C-terminal RGG region (G3BP1, Homo sapiens, UniProt Q13283)
Sequence of UniProt Q13283 (whole entry, looked up): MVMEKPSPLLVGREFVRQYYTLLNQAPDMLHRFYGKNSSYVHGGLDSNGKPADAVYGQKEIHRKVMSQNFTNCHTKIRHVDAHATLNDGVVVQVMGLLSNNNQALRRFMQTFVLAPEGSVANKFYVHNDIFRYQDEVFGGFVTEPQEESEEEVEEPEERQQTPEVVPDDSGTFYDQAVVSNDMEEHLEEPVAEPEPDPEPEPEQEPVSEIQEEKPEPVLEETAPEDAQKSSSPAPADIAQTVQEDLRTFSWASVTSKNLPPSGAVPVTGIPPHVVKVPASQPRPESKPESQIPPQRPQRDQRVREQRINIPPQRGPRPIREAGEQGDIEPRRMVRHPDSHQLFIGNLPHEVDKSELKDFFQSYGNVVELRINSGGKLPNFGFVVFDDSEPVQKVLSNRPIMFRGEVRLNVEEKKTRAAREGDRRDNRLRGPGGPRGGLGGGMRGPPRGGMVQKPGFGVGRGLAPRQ
Shared flanks, not repeated: GGGAGUUCUACAGUCCGACGAUC … UGGAAUUCUCGGGUGUCAAGG
Sequence	log2 enrichment
UUGUCCCGGAUGGGCAGCCUGCGGGCUCCCGUGGACGAGGACCGCCUGUCCCCGCUGGUGGCGGCCGACUCGCUCCUGGAGCAUGUGCGG	-1.09
UCCUGUGCUACACAUCGUAUGUACCGAAUCGGGGUUUUUUUGGGGUUUUUGGGGUGGGGAAAGUAUUAUGUUACGCCGUUCGGAUCUGCA	0.978
CAAGUCCUGUGCUACACAUCGUAUGUACCGAAUCGGGUUUUUGGGUGGGAAAGGGAAAGUAUUAUGUUACGCCGUUCGGAUCUGCACUUC	1.35
UCCUGUGCUACACAUCGUAUGUACCGAAUCGGGGCCCCCCGGGGCCCCCCGGCCCCCCGGAAAGUAUUAUGUUACGCCGUUCGGAUCUGC	-0.773
UGCGGGACAAAGAAGUGGCCAAUCGAUACUUUACCACUGUCUGUGUGAGAUUACUGCUUGAGAGCAAAGAAAAGAAGAUCAGGGAAUUCA	0.0425
UCCUGUGCUACACAUCGUAUGUACCGAAUCGGGGAAAAAGGGAAAAAGGGGAAAAAGGGAAAGUAUUAUGUUACGCCGUUCGGAUCUGCA	-0.624
UGCCAGGCCCACCCCCAGGUGUUCCCGCGCCUGGGGGCCCACCCCUGUCCACCGGACCUAUAGUGGACCUGCUCCAGUACAGCCAGAAGG	-0.134
ACCAUGCAGGUGGGCAUCUUUGGGAAGUGGGGCAAGGGGGGGAUAGGGAGGGGGGUAACACUUUGGGAACAGGUGGUCCCAUGUCGUUUC	1.5
UCCUGUGCUACACAUCGUAUGUACCGAAUCAAACCCCCCCAAACCCCCCCAAACCCAAAAAAGUAUUAUGUUACGCCGUUCGGAUCUGCA	-0.613
UAUGCCACGCCCUUUGAGGACUCGAAGAUCAUGGUCUCUGACUUUGGACUCUCCAAAAUCCAGGCUGGGAACAUGCUAGGCACCGCCUGU	-0.389
UGGGAGGUGGAUUUUGUUUAUUUUUUUAGCUCAUUUCCAGGGGUGGGAAUUUUUUUUUAAUAUGUGUCAUGAAUAAAGUUGUUUUUGAAA	2.78
CUCAAGUCCUGUGCUACACAUCGUAUGUACCGAAUCGGGAAGGGAAGGGAAGGAAAGUAUUAUGUUACGCCGUUCGGAUCUGCACUUCCA	-0.781
UGGCCCUGGUGGCAUGCGGGGAGGAAGAGGUGGCCUCAUGGAUCGUGGUGGACCCGGUGGAAUGUUCAGAGGUGGCCGUGGUGGAGACAG	1.74
GUCCUGUGCUACACAUCGUAUGUACCGAAUCGGGGUUUUUUUGGGGUUUGGGGAGGGGAAAGUAUUAUGUUACGCCGUUCGGAUCUGCAC	2.27

Study 3 — technique: universal PBM; molecule type: double-stranded DNA, one strand shown; sample: in vitro; tested at: not given; direction: higher = stronger binding
Target: Sal-like protein 4, full length isoform B (SALL4, Homo sapiens, UniProt Q9UJQ4-2, residues 1-616)
Setting: 8-mer, flanks averaged, mean of replicates
Sequence	E-score
GGGTTGAA	-0.0791
CCGTAGGC	-0.219
CCGCAACG	-0.13
AGCGAGGC	-0.248
ATCGCAAC	-0.0164
TCCTCACA	-0.0354
AGGTAGCA	-0.0364
CCTGCAGG	-0.286
AGCTGATA	0.211
ACCCCGCG	-0.151
GAGAGAAA	-0.00456
CTCCTCCC	-0.342
AAACTAGT	0.077
CCCACGCC	-0.255
AGCGATTC	-0.167
ATATTTCA	0.387
CAGTAACA	0.141
GTCCTCAC	-0.169
GCGCTATA	0.206

Study 4 — technique: RNA Bind-n-Seq; molecule type: RNA; sample: in vitro; tested at: 365 nM; baseline: no-protein control; direction: higher = stronger binding
Target: RNA binding protein fox-1 homolog 2, RRM domain, GST-SBP tag (RBFOX2, Homo sapiens, UniProt O43251-10, residues 100-194)
Setting: natural RNA segment, single round, ends assumed
Shared flanks, not repeated: GGGAGUUCUACAGUCCGACGAUC … UGGAAUUCUCGGGUGCCAA
Target sequence (chain): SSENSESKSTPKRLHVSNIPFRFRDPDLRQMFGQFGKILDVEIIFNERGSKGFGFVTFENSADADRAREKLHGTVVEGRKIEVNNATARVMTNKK
Sequence	RBNS enrichment (R)
AUGAUCAAGCAAAGCUCCCAAGCCAAAGGGUAGCAGAGGGUGGCUACGUGGUUUUUAGGUAGAUGUUCCCAGGUGCCCUCUCUUGAGCUGGGUCUGAGGUUAUCCCUGUC	0.596
CGUUGCCAGAGCUGGAAGUUUCCACAGGCUGCUGGAGCUAGACAACAAUUCAGACAGAAAGGGAAAGUCCCUGAGGCAAAGUCUCUCUAGCCAGAGACCUAUGCAUCCCG	0.331
UCCUGUGUUCUCACCACUGUCCCUCUAGCCCUGACUGCAAGUAUGCAGUGCUGGAUGACGGGCAGUGUGCAAGGCAUCCCAGCAUUCAUGGUCCCUUGUUAGUGUUGUGC	0.531
GCGGGACCCCACCACGAGUGCUUCCAGAACCGCAACAGGAUAUCAGUCCUGCAUCUUCUGUGUAGUAACAGGGUCCUUCGGGCUCCACAGUCAGUGCAGGUGGCUAGUCA	0.263
CCAAAGCCCCUUCCAGGCCUGAAUUCCACAAGUACGAUUUACUGUAGUGUCUUAUCACUCUUUCAUGUCACAAUAGCGUGGAGCAUUAGAGAAAAGCCUAGACUUUUAGU	0.502
GACCGCCCCUCUUGAGGAAGCAGAAUUAACAUCAGAAUACAAACAGCAUCAGGGCAACCCACUUCAGUGUUCUCUUUUAAAAAUCAGUUCCUGCUGGGUGUGGUGGCGCA	0.851
CUGUGUUUCUUGGCCUCUAGACUCUAACAGGCAGAGUCUAGAGUAAGUUUUAGGGUCUGGGCUGAGUCAAGGUGAGUUCCUCUGCCAGGAAGCCCUUUCUAGGAGGUUGU	0.802
GAUGCCCAUGUUUUAUUGCUAUUACUAAAUGUCAAGAUUGUAUGCUAUUAUGUCUUGUAAAUUUCUUUUGUUGGUGUAAAUAUGGAAAUGCCACAUUGGUUAAGUGCCAU	0.552
UUGUUGUGCUGGCCCAGGCGUGGGGCUACCAAGCAAAGGCUUGGCAUAUACCAAAGGCCAGCUGCAUGCCCAUCAGUCUGGUCUUUUUCCUCUGCGGUCAUGUUGGCUUU	0.762
UAUGAAAAUGAGCCCUGGCUCCCACCUGUUUCUGGAAGACUGCUCCCGGCCCGCCUGCCCAGACUGAUGAGCACAUCUCUCUGCCCUCUCCCUGUGUUCUGGGCUGGGGC	0.494
ACAGAUCUAACCAUGCAUUGCUAGCUCUGCUCCCAGCAUCCCUUCCCCUUCUCUCCUCCUCUGCCUCACUUCUUUAGUAAUCCCAACCCUAUAAAAAUGAACCUAAUGGG	4.71
AUUGGCCUGUGUCCGCCACUUGGAGUGCCCCAAAGGGGGCUUCUAACCAUUCCUUCCUCCAUCAGCCCCCAGCUUUUUUUCCUGGUAUCUGAGGUCCCAGGAGGAGGCUC	0.64

Study 5 — target: CCNA1, cyclin fold, Cln2 fusion (human); technique: yeast growth competition, sequencing; sample: yeast; setting: weak parent motif; baseline: not given; direction: higher = stronger binding
Starting sequence: DBF4B docking peptide (human); LGYLYLLLTQSLW
Substitution	normalised enrichment score
LGYLYLLLTQSAW [L12A]	-0.24
LGYLYLLLTQALW [S11A]	0.217
LGYLYLLLTQSLA [W13A]	-0.336
LGALYLLLTQSLW [Y3A]	-0.541
LGYLYLLATQSLW [L8A]	0.0269
AGYLYLLLTQSLW [L1A]	-0.154

Study 6 — technique: RNA Bind-n-Seq; molecule type: RNA; sample: in vitro; tested at: not given; baseline: input RNA pool; direction: higher = stronger binding
Target: RING finger protein unkempt homolog, zinc fingers 1-6, GST-SBP tag (UNK, Homo sapiens, UniProt Q9C0B0, residues 30-357)
Sequence of UniProt Q9C0B0 (30-357, looked up): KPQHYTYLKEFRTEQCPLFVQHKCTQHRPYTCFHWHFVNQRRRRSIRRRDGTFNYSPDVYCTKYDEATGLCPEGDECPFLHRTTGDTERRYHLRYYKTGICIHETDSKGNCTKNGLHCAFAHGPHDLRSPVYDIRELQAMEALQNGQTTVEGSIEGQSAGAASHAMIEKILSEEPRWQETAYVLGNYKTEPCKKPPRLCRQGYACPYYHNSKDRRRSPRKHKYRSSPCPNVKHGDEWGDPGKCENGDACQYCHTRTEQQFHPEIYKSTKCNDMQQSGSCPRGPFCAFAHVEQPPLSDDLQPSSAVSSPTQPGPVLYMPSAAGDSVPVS
Setting: RNA with constant flanks, human-mouse chimeric sites, ends assumed
Shared flanks, not repeated: GGGAGUUCUACAGUCCGACGAUC … CAACAGAGGAUUGAGCAUCA
Sequence	bound/input enrichment
GCACUUGGGAAUGUAAUCAGCGCCUUGGGGGACAAGAGCAAGAGAGCCACCCAUGUCCCUUACAGAGACUCUAAGCUGACAAGACUCUUGCAGGAUUCCCUCGGGGGUAACAGCCAAACC	0.131 ratio
UCAACUGACAACAUCAAAUACCAGCCUAAAGGGGGGCAGGUACAAAUUGUUACCAAGAAGAUAGACUUAAGCCAUGUGACAUCCAAAUGUGGCUCUCUGAAGAACAUCCGCCACAGGCCA	0.215 ratio
UAAAUUAGCCAGCACCAUUUCUGUUUCUCCCUGGGCUGCGGAAAGCCAGGCGGUUUUAUCUAGCUUAUACAAGGCUGCUGGUGUUCCCUCUUUUUUUCCACGAGGGUGUUUUUGGCUGCA	3.58 ratio
GCUCUUGGGAAUGUAAUCAGCGCCUUGGGGGACAAGAGCAAGAGGGCCACCCAUGUCCCUUACAGAGACUCUAAGCUGACAAGACUCUUGCAGGAUUCCCUCGGGGGUAACAGCCAAACC	0.137 ratio
AGUUCCAAACCACCAUCAGAAAUGAAGAUGAGAUUACCCAGACGAGCCAAAACAGCUGCGCUACAGAAAAAGUAAACUAACCUUGCAGAGUUCCUUAAUGAAGAUACAAGUUAAGAGAGC	0.253 ratio
GGGGAGAAACCUUACGAGUGUGUGCAGUGUGGGAAAUCCUACAGUCAAAGCUCAAAUCUUUUUAGACAUCAGAGACGACACAAUGCAGAAAAACUUUUGAAUGUUGUGAAGGUUUAAGAA	0.121 ratio
GAUCCACAGUGGUCUGAGGAACAGCUGAUUGCUGCAAAAUUCUGUUUUGCUGGCCUUGUUAUAGGGCAGACUGAAGUGGACAUCAUGAGUCAUGCCACACAAGCUAUUUUUGAAAUUCUG	0.282 ratio
GUAUACGGUUAUCGAGGAAAGGACUGUAGAGCGAAUGUAUACCUGCUUCCCACAGGGGAGAUAGUUUAUUUCAUUGCAUCAGUAGUAGUCCUGUUUAAUUAUGAGGAGAGGACUCAGCGA	1.31 ratio

Excerpt of the above (study 3):
Sequence	E-score
ATATTTCA	0.387
TCCTCACA	-0.0354
CCGTAGGC	-0.219
AGCTGATA	0.211
AAACTAGT	0.077
GAGAGAAA	-0.00456
AGCGAGGC	-0.248
GGGTTGAA	-0.0791
